Published values of several laboratories.
Compare with care: the assays were run in different laboratories. ± marks the error that the study gave.
ARAF: Serine/threonine-protein kinase A-Raf (ARAF, Homo sapiens, UniProt P10398)
Chain of UniProt P10398 (whole entry, looked up): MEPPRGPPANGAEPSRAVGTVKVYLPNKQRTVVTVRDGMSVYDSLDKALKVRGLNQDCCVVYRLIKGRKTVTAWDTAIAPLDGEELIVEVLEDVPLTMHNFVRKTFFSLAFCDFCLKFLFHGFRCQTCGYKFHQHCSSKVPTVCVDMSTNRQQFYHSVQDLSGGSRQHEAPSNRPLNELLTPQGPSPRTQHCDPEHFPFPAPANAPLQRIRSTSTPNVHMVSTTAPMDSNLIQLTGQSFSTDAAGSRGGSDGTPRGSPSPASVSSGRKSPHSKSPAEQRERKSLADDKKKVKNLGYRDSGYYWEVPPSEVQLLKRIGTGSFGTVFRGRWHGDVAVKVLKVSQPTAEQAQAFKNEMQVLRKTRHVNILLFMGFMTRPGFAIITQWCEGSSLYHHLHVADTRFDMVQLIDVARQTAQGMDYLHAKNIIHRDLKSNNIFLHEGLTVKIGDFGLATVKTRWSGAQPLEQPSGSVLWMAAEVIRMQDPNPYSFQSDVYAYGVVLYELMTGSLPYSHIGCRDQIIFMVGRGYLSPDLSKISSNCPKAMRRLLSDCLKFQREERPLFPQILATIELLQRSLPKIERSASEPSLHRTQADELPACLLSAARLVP
DCLRE1A: DNA cross-link repair 1A protein (DCLRE1A, Homo sapiens, UniProt Q6PJP8)
Chain of UniProt Q6PJP8 (whole entry, looked up): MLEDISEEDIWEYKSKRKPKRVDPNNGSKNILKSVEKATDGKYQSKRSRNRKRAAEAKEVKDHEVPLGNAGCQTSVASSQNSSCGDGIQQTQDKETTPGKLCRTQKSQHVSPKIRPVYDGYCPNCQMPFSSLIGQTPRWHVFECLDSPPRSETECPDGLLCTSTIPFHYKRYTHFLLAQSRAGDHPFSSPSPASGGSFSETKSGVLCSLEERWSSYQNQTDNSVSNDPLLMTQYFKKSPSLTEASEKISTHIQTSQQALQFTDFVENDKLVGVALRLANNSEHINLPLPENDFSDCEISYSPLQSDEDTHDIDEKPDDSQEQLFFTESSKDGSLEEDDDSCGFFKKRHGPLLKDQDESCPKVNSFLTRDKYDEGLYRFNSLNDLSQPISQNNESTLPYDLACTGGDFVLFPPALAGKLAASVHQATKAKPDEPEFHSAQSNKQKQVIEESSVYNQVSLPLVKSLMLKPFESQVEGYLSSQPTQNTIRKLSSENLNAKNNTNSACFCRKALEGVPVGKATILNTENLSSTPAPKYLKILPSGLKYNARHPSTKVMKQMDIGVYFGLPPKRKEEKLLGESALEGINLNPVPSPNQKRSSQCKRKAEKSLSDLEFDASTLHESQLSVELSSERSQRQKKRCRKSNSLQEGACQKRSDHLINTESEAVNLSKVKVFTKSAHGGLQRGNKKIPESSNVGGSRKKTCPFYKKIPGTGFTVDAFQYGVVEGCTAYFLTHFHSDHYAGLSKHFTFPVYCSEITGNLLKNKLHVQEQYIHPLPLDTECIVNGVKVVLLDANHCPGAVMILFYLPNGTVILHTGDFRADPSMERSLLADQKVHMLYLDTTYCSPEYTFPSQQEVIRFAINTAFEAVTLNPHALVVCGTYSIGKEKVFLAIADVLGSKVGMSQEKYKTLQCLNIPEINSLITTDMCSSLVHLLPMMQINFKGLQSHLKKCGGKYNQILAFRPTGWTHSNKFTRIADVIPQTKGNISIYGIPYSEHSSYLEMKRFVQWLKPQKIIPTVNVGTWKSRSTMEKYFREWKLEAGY
STK11: Serine/threonine-protein kinase STK11 (STK11, Homo sapiens, UniProt Q15831)
Chain of UniProt Q15831 (whole entry, looked up): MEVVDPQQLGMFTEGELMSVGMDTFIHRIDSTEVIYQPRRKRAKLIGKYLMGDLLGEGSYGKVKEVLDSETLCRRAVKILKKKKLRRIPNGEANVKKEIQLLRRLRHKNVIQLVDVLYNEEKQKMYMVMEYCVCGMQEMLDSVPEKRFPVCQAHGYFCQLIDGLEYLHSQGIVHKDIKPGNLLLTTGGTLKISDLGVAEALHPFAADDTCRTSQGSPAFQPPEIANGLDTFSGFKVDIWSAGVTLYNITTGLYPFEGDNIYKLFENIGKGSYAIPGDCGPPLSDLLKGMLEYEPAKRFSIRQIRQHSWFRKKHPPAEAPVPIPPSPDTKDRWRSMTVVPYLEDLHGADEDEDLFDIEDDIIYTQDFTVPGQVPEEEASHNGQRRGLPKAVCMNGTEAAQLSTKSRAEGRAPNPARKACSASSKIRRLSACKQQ
MYLK: Myosin light chain kinase, smooth muscle (MYLK, Homo sapiens, UniProt Q15746)
Chain of UniProt Q15746 (whole entry, looked up): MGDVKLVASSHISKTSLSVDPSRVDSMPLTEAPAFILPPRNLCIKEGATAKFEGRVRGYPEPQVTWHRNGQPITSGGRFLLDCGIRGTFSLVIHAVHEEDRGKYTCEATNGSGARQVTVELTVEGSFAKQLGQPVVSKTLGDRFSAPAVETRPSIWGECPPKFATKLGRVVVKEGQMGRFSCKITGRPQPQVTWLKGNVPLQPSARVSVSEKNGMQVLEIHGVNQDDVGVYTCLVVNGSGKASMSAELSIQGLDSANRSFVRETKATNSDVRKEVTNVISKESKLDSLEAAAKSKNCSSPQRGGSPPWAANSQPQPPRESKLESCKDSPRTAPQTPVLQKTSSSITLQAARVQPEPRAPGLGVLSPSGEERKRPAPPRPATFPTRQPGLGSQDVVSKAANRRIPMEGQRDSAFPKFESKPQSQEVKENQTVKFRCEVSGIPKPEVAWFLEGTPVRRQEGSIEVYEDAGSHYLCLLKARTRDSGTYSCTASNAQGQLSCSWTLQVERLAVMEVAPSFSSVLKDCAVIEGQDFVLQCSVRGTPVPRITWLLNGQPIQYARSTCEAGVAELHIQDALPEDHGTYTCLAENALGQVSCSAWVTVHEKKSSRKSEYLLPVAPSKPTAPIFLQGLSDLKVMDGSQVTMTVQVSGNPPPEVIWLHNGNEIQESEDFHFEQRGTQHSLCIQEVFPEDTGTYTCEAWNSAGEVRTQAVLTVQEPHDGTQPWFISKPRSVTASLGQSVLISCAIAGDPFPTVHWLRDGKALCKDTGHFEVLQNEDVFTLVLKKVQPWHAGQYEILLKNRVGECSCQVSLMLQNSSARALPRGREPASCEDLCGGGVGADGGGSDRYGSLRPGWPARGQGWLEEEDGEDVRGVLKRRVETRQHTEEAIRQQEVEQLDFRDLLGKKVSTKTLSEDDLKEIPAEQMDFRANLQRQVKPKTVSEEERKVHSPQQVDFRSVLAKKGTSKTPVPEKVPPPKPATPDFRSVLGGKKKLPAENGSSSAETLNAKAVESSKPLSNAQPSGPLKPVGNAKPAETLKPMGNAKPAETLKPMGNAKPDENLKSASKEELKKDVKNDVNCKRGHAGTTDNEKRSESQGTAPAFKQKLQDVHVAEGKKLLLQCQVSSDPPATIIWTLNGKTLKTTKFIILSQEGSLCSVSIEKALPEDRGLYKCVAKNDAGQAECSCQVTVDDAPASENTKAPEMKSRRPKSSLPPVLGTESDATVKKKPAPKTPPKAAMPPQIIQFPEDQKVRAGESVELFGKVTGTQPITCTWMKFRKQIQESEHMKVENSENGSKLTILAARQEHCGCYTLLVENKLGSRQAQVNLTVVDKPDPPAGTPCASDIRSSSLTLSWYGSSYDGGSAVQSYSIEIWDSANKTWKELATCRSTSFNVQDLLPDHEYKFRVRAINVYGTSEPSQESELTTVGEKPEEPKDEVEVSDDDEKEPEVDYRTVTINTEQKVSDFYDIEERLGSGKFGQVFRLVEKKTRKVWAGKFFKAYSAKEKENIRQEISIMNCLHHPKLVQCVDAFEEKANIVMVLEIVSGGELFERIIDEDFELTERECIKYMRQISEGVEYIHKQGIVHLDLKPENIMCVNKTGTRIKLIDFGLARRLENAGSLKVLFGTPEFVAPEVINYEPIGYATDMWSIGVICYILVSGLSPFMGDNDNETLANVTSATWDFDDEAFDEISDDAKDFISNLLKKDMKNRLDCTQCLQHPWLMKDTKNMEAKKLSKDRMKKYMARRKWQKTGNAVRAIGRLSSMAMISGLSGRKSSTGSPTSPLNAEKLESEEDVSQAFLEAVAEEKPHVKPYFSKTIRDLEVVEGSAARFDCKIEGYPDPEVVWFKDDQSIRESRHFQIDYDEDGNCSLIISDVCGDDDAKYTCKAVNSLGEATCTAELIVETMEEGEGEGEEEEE
Chain of UniProt P54762 (whole entry, looked up): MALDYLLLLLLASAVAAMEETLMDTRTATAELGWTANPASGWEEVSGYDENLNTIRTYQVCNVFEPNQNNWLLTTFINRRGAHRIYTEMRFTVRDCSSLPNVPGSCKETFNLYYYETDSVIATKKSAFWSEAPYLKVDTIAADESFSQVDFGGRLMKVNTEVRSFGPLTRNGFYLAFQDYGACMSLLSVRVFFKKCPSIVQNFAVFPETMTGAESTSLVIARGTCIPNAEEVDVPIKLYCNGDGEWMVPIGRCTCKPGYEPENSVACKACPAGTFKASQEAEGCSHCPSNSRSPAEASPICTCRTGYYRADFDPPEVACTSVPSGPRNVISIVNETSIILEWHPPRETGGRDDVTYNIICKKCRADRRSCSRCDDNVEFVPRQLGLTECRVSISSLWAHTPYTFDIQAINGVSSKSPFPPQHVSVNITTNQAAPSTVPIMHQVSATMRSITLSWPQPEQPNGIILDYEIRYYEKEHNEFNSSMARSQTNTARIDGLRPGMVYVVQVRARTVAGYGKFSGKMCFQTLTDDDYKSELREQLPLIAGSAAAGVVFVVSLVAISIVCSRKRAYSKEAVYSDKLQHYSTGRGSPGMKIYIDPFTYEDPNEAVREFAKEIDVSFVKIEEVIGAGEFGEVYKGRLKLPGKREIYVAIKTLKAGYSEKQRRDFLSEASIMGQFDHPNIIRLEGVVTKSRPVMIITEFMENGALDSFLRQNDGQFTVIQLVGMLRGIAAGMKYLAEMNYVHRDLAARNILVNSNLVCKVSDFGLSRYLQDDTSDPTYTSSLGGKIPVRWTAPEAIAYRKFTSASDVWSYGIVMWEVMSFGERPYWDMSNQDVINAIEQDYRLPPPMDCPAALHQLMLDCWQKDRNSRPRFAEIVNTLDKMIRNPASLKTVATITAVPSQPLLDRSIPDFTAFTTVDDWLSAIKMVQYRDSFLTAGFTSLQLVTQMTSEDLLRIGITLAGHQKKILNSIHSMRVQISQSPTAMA

Compound	target	test	conditions	how to read	remaining activity
COc1ccc(F)cc1C(=O)NCc1ccc(-c2nn([C@@H](C)C(F)(F)F)c(N)c2C(N)=O)cc1	ARAF		1000 nM, with: ATP at Km		94.5 ± 1.2%
CC[n+]1c(/C=C/C=C2/N(C)c3ccccc3C2(C)C)sc2ccccc21.[I-]	DCLRE1A	exonuclease activity, inhibitor, fluorescence HTS	10 µM, 80 min, with: 8 nM 5P-FQ substrate	baseline: high and low controls	30.8%
COc1cc(-c2cncc3c2CN(C)Cc2cc(N4CCNCC4)ccc2-3)cc(OC)c1OC	STK32B (Homo sapiens, UniProt Q9NY57)	kinase activity	1 µM, human enzyme, with: ATP 10 µM	baseline: DMSO control	101%
Clc1ccc(C(c2ccc(Cl)cc2)n2cc[n+](CC(OCc3ccc(Cl)cc3Cl)c3ccc(Cl)cc3Cl)c2)cc1 (centres unmarked)	DCLRE1A	exonuclease activity, inhibitor, fluorescence HTS	10 µM, 80 min, with: 8 nM 5P-FQ substrate		40.6%
Cc1[nH]c(/C=C2\C(=O)Nc3ccc(F)cc32)c(C)c1C(=O)N[C@H]1CCN(C(=O)N(C)C)C1	AMPK, rat	kinase activity, KinaseProfiler	0.1 µM	baseline: control	74%
S=C=Nc1ccc2oc(C3=NCCN3)cc2c1	DCLRE1A	exonuclease activity, inhibitor, fluorescence HTS	10 µM, 80 min, with: 8 nM 5P-FQ substrate	baseline: high and low controls	51.4%
O=C(O)c1ccc(Nc2ncc3c(n2)-c2ccc(Cl)cc2C(c2c(F)cccc2F)=NC3)cc1	PKCθ(h)	kinase activity	1 µM		112%
COc1cc(N2CCN(C)CC2)ccc1Nc1nc(N)n(C(=S)NCc2c(Cl)cccc2Cl)n1	DYRK1B (Homo sapiens, UniProt Q9Y463)	enzyme activity	10 µM	baseline: control	0.45%
OC[C@H]1OC(O)[C@H](O)[C@@H](O)[C@@H]1O (some centres unmarked)	uncharacterized protein (Lacticaseibacillus rhamnosus, UniProt A0A7S7JIA0)	inhibitor	1000 µM, 5 min	baseline: untreated	94.7 ± 3.5%
C=CC(=O)N1CCC[C@@H](n2nc(-c3ccc(Oc4ccccc4)cc3)c3c(N)ncnc32)C1	STK26 (Homo sapiens, UniProt Q9P289)	kinase activity, inhibitor, HotSpot radiometric	100 nM, with: ATP 10 µM		76.5 ± 1%
c1cnc2ccc(Nc3nc(NC4CC4)c4nc[nH]c4n3)cc2c1	AKT1 (Homo sapiens, UniProt P31749)	kinase activity, inhibitor, SelectScreen kinase profiling	1 µM	baseline: control	103%
CC#CC(=O)N1CCC[C@H]1c1nc(-c2ccc(C(=O)Nc3ccccn3)cc2)c2c(N)nccn12	ARAF	kinase activity, inhibitor, HotSpot radiometric	100 nM, with: ATP 10 µM		93.9 ± 0.8%
NC/C(=C\F)COc1cccc(Cn2c(=S)[nH]c(=O)c3[nH]cnc32)c1	Peroxidasin homolog (PXDN, Homo sapiens, UniProt Q92626)	enzyme activity, inhibitor, Amplex UltraRed	0.3125 µM	baseline: control	99.8%
COc1cc(O)c2c(c1)oc(=O)c1c3cc(O)c(O)cc3oc21	DCLRE1A	exonuclease activity, inhibitor, fluorescence HTS	10 µM, 80 min, with: 8 nM 5P-FQ substrate		26.6%
Cc1cc(NC(=O)c2cccc(NC(=O)/C=C/CN(C)C)c2)ccc1Nc1nccc(-c2cccnc2)n1	MAPK8 (Homo sapiens, UniProt P45983)	enzyme activity, inhibitor	0.02032 µM, 0 h, unit not given, with: GSH 10 mM pre-incubation	baseline: vehicle	0.655
Cc1cc(Nc2cc(N3CCN(C)CC3)nc(Sc3ccc(NC(=O)C4CC4)cc3)n2)[nH]n1	STK11	kinase activity, KinaseProfiler	0.03 µM, species human	baseline: control	85%
CNc1ncc2c(/C=C/C(=O)N3CCC(OC)CC3)nn(Cc3cccc(C(F)(F)F)c3)c2n1	MYLK	kinase activity, inhibitor	1 µM	baseline: untreated control	102%
C=CC(=O)N1CCC[C@@H](n2nc(-c3ccc(Oc4ccccc4)cc3)c3c(N)ncnc32)C1	MYLK		1 µM		85.1%
O=C(NC1CCC1)c1ccc2nc(-c3cccc(NS(=O)(=O)NCCN4CCCCC4)c3)cn2c1	EPHB1 (Homo sapiens, UniProt P54762)	enzyme activity	10 µM		100%
COc1cc(Nc2ncc3c(n2)-c2ccc(Cl)cc2C(c2c(F)cccc2OC)=NC3)ccc1C(=O)O	MAP3K8	kinase activity	1 µM		94%
O=C(Nc1cccc(C(=O)Nc2ccc(S(=O)(=O)O)c3cc(S(=O)(=O)O)cc(S(=O)(=O)O)c23)c1)Nc1cccc(C(=O)Nc2ccc(S(=O)(=O)O)c3cc(S(=O)(=O)O)cc(S(=O)(=O)O)c23)c1	DCLRE1A	exonuclease activity, inhibitor, fluorescence HTS	10 µM, 80 min, with: 8 nM 5P-FQ substrate	baseline: high and low controls	49.6%
COc1ccc2oc(-c3ccc4nc(N)oc4c3)c/c(=N\c3ccccc3NC(=O)CCN)c2c1	Phosphatidylinositol 4,5-bisphosphate 3-kinase catalytic subunit beta isoform, with p85 beta (Pik3cb, Mus musculus, UniProt Q8BTI9)		1 µM	baseline: untreated	93%
Cc1cc2c(C(C)C)c(O)c(O)c(C=O)c2c(O)c1-c1c(C)cc2c(C(C)C)c(O)c(O)c(C=O)c2c1O	DCLRE1A	exonuclease activity, inhibitor, fluorescence HTS	10 µM, 80 min, with: 8 nM 5P-FQ substrate		38.6%
COc1cc(N2CCN(C)CC2)ccc1Nc1nc(N)n(C(=O)NCc2c(Cl)cccc2Cl)n1	CSNK2A2 (Homo sapiens, UniProt P19784)	enzyme activity	10 µM	baseline: control	28%
Nc1c(S(=O)(=O)O)cc(Nc2ccc(Nc3nc(Cl)nc(Nc4cccc(S(=O)(=O)O)c4)n3)c(S(=O)(=O)O)c2)c2c1C(=O)c1ccccc1C2=O	DCLRE1A	exonuclease activity, inhibitor, fluorescence HTS	10 µM, 80 min, with: 8 nM 5P-FQ substrate		18.7%
O=C1NC(=O)/C(=C/c2ccc(-c3ccc(F)cc3O)o2)S1	MELK (Homo sapiens, UniProt Q14680)	enzyme activity	10 µM		91%
COc1cc(F)ccc1-c1ncnc(Nc2cccc(C[S@](C)(=N)=O)c2)n1	STK11	kinase activity	10 µM, with: 10 µM ATP		90%
C[n+]1c2cc(N)ccc2cc2ccc(N)cc21.[Cl-]	DCLRE1A	exonuclease activity, inhibitor, fluorescence HTS	10 µM, 80 min, with: 8 nM 5P-FQ substrate	baseline: high and low controls	19.8%
C=CC(=O)N1CCC([C@@H]2CCNc3c(C(N)=O)c(-c4ccc(Oc5ccccc5)cc4)nn32)CC1	ARAF	kinase activity, inhibitor, HotSpot radiometric	100 nM, with: ATP 10 µM		87.4 ± 1.4%
